# Assay results gathered from unrelated publications.
# Numbered parts are unrelated; each lists some results of a single study. Values joined by “and” are separate records of one study, mostly repeats; a detail may differ.
# Chain of UniProt Q16584 (whole entry, looked up): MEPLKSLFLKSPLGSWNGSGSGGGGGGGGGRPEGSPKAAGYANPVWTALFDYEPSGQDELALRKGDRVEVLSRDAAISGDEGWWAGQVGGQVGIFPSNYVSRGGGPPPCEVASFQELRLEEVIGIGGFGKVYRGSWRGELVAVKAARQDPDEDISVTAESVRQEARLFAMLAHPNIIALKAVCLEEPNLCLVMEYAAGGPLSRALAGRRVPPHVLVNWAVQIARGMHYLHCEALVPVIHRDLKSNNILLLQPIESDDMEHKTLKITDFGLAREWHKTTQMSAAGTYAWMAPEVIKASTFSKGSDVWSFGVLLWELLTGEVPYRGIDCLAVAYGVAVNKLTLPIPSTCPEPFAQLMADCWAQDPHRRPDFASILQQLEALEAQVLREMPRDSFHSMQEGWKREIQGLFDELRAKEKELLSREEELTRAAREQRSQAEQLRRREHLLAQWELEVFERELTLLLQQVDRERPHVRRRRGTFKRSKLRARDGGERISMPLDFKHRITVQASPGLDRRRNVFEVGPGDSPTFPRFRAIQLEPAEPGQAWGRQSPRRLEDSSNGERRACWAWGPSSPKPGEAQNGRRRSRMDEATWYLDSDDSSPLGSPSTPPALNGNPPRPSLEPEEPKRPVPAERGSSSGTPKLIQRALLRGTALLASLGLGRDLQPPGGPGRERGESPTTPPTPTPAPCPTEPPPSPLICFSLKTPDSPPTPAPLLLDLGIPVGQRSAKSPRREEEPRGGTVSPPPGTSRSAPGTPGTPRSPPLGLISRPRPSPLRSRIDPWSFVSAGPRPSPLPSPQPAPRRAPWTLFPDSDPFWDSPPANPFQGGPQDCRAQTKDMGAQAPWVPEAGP
# Chain of UniProt Q9NR20 (whole entry, looked up): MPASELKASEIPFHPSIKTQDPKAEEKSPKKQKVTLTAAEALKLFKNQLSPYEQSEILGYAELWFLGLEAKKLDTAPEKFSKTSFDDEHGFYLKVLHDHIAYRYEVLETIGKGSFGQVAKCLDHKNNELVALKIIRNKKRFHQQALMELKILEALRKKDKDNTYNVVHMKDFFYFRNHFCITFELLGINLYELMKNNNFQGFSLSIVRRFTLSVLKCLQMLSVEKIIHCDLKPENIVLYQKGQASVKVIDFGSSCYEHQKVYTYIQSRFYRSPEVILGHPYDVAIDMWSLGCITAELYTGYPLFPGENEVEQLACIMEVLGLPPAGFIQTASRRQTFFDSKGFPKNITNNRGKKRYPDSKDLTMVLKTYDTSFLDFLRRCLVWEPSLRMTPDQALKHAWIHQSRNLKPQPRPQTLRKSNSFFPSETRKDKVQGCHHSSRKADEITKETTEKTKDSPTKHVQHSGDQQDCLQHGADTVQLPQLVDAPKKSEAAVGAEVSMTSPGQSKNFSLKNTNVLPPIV
# Chain of UniProt O00750 (whole entry, looked up): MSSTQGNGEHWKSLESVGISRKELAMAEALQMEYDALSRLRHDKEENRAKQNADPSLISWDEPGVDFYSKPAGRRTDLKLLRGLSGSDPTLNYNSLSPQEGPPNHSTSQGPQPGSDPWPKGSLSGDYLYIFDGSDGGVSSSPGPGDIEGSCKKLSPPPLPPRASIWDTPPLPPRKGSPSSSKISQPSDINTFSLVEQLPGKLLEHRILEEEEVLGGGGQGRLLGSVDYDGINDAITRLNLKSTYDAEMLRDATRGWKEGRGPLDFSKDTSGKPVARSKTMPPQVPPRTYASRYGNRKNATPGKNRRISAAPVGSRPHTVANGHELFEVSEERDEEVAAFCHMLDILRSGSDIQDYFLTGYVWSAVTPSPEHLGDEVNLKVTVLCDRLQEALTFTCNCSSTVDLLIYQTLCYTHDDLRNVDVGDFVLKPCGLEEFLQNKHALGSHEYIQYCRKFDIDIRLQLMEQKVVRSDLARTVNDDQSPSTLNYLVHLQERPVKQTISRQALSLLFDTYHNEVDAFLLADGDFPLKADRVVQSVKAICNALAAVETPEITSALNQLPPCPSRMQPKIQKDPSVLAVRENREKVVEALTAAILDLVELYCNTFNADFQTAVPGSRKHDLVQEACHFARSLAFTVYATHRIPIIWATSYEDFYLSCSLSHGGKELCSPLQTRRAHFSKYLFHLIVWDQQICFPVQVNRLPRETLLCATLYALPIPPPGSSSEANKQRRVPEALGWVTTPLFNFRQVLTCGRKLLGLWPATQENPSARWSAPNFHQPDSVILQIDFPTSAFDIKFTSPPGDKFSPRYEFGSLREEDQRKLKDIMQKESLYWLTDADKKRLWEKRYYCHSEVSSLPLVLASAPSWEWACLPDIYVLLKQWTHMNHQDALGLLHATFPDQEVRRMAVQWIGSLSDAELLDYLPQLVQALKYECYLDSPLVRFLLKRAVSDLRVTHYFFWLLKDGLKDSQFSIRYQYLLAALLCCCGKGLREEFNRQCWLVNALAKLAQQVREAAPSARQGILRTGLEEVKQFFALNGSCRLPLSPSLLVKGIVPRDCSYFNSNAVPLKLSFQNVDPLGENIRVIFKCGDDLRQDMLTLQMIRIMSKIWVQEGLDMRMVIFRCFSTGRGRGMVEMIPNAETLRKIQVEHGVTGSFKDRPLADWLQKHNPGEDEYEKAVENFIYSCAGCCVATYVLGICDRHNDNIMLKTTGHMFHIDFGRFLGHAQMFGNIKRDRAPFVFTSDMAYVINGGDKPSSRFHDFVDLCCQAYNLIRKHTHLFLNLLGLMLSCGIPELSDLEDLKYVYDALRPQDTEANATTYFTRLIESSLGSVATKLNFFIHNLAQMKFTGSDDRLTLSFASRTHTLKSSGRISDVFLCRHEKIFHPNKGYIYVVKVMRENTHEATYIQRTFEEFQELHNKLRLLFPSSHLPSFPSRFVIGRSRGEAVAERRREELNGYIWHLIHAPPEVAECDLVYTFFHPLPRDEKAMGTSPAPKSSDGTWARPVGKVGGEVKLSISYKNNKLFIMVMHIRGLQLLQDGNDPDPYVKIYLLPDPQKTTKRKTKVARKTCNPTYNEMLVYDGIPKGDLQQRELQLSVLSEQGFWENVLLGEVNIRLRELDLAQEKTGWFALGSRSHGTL
# Chain of UniProt Q99986 (whole entry, looked up): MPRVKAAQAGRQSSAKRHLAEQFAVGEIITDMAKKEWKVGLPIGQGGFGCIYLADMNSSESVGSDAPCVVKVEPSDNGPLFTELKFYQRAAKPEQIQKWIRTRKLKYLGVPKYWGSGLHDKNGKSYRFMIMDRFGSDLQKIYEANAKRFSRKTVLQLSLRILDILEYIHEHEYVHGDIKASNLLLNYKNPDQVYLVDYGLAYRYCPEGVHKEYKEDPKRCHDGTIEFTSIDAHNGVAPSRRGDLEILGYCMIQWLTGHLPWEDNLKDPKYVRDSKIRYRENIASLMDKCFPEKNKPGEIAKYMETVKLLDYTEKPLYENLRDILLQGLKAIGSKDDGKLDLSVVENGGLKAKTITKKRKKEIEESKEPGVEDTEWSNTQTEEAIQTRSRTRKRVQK
# Chain of UniProt Q9UBS0 (whole entry, looked up): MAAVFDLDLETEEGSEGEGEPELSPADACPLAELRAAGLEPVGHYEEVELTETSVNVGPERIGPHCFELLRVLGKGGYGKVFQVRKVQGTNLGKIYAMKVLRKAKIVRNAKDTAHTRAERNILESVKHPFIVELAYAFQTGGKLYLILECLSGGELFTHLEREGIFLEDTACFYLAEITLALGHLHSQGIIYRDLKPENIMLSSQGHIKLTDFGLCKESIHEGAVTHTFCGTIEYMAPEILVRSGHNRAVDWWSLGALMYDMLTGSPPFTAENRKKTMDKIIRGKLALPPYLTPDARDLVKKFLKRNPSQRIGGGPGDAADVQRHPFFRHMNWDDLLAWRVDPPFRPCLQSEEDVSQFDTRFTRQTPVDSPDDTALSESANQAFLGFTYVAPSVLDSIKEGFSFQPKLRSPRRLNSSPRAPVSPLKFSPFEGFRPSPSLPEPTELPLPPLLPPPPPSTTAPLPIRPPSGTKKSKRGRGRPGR
# Chain of UniProt P10398 (whole entry, looked up): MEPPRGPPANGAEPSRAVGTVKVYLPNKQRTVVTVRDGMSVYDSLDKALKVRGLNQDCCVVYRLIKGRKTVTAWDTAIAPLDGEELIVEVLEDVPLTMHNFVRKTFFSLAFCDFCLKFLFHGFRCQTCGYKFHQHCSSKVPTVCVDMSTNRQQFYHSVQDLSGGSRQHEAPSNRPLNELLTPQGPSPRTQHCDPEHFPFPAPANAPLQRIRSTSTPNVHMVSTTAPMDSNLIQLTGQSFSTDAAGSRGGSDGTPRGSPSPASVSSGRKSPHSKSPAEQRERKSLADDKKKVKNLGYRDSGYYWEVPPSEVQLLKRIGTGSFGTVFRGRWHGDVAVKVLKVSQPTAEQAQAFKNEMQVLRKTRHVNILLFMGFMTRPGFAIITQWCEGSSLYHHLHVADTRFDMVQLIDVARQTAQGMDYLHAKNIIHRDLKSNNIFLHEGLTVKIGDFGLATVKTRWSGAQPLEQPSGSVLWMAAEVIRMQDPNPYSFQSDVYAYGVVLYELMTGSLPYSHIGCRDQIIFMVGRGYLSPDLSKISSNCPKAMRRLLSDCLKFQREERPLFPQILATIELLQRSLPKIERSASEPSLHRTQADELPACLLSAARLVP
# Chain of UniProt P62344 (whole entry, looked up): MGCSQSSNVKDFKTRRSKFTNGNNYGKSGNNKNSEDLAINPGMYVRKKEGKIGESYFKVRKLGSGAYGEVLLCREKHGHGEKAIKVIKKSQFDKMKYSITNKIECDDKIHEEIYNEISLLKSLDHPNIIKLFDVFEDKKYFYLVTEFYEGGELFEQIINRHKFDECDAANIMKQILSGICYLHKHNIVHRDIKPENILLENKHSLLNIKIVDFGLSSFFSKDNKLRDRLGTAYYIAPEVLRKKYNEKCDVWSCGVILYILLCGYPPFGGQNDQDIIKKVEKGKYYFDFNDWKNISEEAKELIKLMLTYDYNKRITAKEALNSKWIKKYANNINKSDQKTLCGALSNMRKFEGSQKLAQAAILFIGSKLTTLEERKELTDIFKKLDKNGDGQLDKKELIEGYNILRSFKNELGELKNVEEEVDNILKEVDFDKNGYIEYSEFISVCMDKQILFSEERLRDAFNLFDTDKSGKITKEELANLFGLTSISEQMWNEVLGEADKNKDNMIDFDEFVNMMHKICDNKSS

# Block 1 — effect on: cell-free assay; tested at: 0.5 µM
# SMILES: N#CCCc1ccc2c(c1)-c1[nH]c3ccc([N+](=O)[O-])cc3c1CC(=O)N2
target,remaining signal
"Cyclin-dependent kinase 2, with cyclin E (CDK2, Homo sapiens, UniProt P24941)",13.4%
"RPS6KB2 (Homo sapiens, UniProt Q9UBS0)",96.1%
"VRK1 (Homo sapiens, UniProt Q99986)",97.5%
"DYRK4 (Homo sapiens, UniProt Q9NR20)",100%
"ARAF (Homo sapiens, UniProt P10398)",94.5%

# Block 2 — cell line: sample C colorectal tumour organoid; tested at: 1 µM; relative to: DMSO
SMILES,viability
Cn1cc(-c2ccc3occ(-c4ccccc4-c4ccccc4)c3n2)cn1,102%
CC(C)C(=O)Nc1n[nH]c2cc(-c3cccc(NS(=O)(=O)C4CC4)c3)ccc12,98.3%
CC(=O)NCC(=O)N1[C@@H]2CC[C@H]1c1ccc(Nc3ncc(C(F)(F)F)c(NC4CCC4)n3)cc12,22.6% and 33.8%
CN(C)C(=O)Cn1cc(-c2ccc(-c3nnc4ccccn34)cc2)cn1,99.9%
COc1ccc2c(O[C@@H]3C[C@H]4C(=O)N[C@]5(C(=O)O)CC5/C=C\CCCCC[C@H](NC(=O)OC5CCCC5)C(=O)N4C3)cc(-c3csc(NC(=O)C(C)C)n3)nc2c1C (stereo partly drawn),108%
O=C(O)c1ccc(-c2coc3ncc(-c4ccccc4)cc23)cc1Cl,104%
O=C(Nc1cccnn1)N1CC(CC=Cc2cncc(Oc3ccc(C(F)(F)F)cn3)n2)C1,99.5%
Cc1ncc(-c2cc(Cl)ccc2F)cc1-n1c(=O)n(CC(N)=O)c2ccccc21,106%
O=C(NCc1ccccc1)c1ccc(S(=O)(=O)NCc2ccccc2)cc1,95.2%
COc1cc(Nc2ccnc3ccc(Br)cc23)cc(OC)c1OC,34.8%
CCCCNc1ncc(-c2ccc(CN3CCOCC3)cn2)c(NC2CCC(O)CC2)n1 (stereo not drawn),100%
CCNC(=O)c1cc2c(N3CCOC[C@H]3C)ccnc2n1C,122% and 82%
Cl.Cl.NC1(c2ccc(-c3nc4ccn5c(=O)[nH]nc5c4cc3-c3ccccc3)cc2)CCC1,90.8%
CCC(=NO)C(C)=Cc1ccc(F)c(C)c1,85.5%
CCC(=N\O)/C(C)=C/c1ccc(F)cc1,106%
CCN(CC)S(=O)(=O)Nc1cccc(-c2ccc3c(NC(=O)C4CC4)n[nH]c3c2)c1,79.4%
CCOc1cn(-c2ccc(F)cc2C)nc1C(=O)Nc1ccc(Oc2ccnc3cc(OC)c(OC)cc23)c(F)c1,101% and 102%
COc1cccc(NC(=O)c2nc3scc(CN(C)Cc4ccccc4)c3c(=O)[nH]2)c1,89.4%
CN1CCN(Cc2cc(NC(=O)c3ccc4c(c3)CN(c3ccccc3)CC4)cc(C(F)(F)F)c2)CC1,43.9% and 37.4%

# Block 3 — cell line: HaCaT; tested at: 100 µM; time: 18 h
Compound,viability
CC(=O)OCC(CCn1cnc2cnc(N)nc21)COC(C)=O,92.2%
N[C@@H](Cc1c[nH]c2ccccc12)C(=O)O,99.4%
CC(=O)SCC(Cc1ccccc1)C(=O)NCC(=O)OCc1ccccc1 (stereo not drawn),111%
CC[C@H]1OC(=O)[C@H](C)[C@@H](O[C@H]2C[C@@](C)(OC)[C@@H](O)[C@H](C)O2)[C@H](C)[C@@H](O[C@@H]2O[C@H](C)C[C@H](N(C)C)[C@H]2O)[C@](C)(OC)C[C@@H](C)C(=O)[C@H](C)[C@@H](O)[C@]1(C)O,112%
CC(C)C[C@H](NC(=O)CNC(=O)c1cc(Cl)ccc1Cl)B(O)O,20.5%
Cc1onc(-c2ccccc2)c1C(=O)N[C@@H]1C(=O)N2[C@@H]1SC(C)(C)[C@@H]2C(=O)O,108%

# Block 4 — tested at: 1 µM
# SMILES: Cc1ccc(NC(=O)c2ccnc(C(F)(F)F)c2)cc1-c1cc(OCCO)nc(N2CCOCC2)c1
target,effect on,technique,measured,relative to,remaining binding
"EPHB4 (Homo sapiens, UniProt P54760)",,competitive binding panel,,vehicle,87%
"LATS1 (Homo sapiens, UniProt O95835)",,competitive binding panel,,vehicle,94%
"MAP3K11 (Homo sapiens, UniProt Q16584)",,competitive binding panel,MLK3,vehicle,88%
"PIK3C2B (Homo sapiens, UniProt O00750)",,competitive binding panel,,vehicle,100%
"CDK2 (Homo sapiens, UniProt P24941)",,competitive binding panel,,vehicle,100%
"CDPK1 (Plasmodium falciparum, UniProt P62344)",competitive binding,DiscoverX scanMAX binding,,,77%

# Block 5 — organism: Plasmodium berghei; action: inhibitor; cell line: Huh-7; strain: liver stage; tested at: 10 µM; time: 24 h; relative to: untreated control
Structure (SMILES),infection rate [%]
NC[C@H]1O[C@H](O[C@H]2[C@H](O)[C@@H](O[C@H]3O[C@H](CO)[C@@H](O)[C@H](N)[C@H]3O)[C@H](N)C[C@@H]2N)[C@H](O)[C@@H](O)[C@@H]1O,93.6
C#C[C@]1(O)CC[C@H]2[C@@H]3CCc4cc(OC)ccc4[C@H]3CC[C@@]21C,91.9
C[N+](C)(C)C[C@H](O)CC(=O)[O-],114
O[C@H]1[C@H](O)[C@@H](O)[C@H](O)[C@@H](O)[C@H]1O,109
C[C@@H]1C/C=C/C=C/C=C/C=C/[C@H](O[C@@H]2O[C@H](C)[C@@H](O)[C@H](N)[C@@H]2O)C[C@@H]2O[C@](O)(C[C@@H](O)C[C@H]3O[C@@H]3/C=C/C(=O)O1)C[C@H](O)[C@H]2C(=O)O,106

# Other studies, line by line
SMILES,host,medium,route,dose,time,measurement,result
COc1ccc(-c2c(Nc3ccccn3)[nH]c3c(C4=CCCCC4)c(-c4ccccc4)nn3c2=O)cc1,human,plasma,oral,200 mg twice daily,12 h,Ctau,9770 ng/mL and 9650 ng/mL

# Excerpt of the above (block 2):
SMILES,viability
COc1cc(Nc2ccnc3ccc(Br)cc23)cc(OC)c1OC,34.8%
CCCCNc1ncc(-c2ccc(CN3CCOCC3)cn2)c(NC2CCC(O)CC2)n1 (stereo not drawn),100%
CCNC(=O)c1cc2c(N3CCOC[C@H]3C)ccnc2n1C,122% and 82%
Cl.Cl.NC1(c2ccc(-c3nc4ccn5c(=O)[nH]nc5c4cc3-c3ccccc3)cc2)CCC1,90.8%
CCC(=NO)C(C)=Cc1ccc(F)c(C)c1,85.5%
CCC(=N\O)/C(C)=C/c1ccc(F)cc1,106%
